Experimental data from different studies.
± gives the spread as reported.

For `O=C(N/N=C/c1cc[n+](Cc2ccccc2)c2ccccc12)c1ccc2ccc3ccc(C(=O)N/N=C/c4cc[n+](Cc5ccccc5)c5ccccc45)nc3c2n1`, the ΔTm was 16.5 ± 1.9 °C (myc22 MYC G4-DNA parallel; FRET melting; 1 µM, K1 buffer, DNA 0.2 µM, with: ds26 10 µM).
Under “log2 fold change”, `C=CC(=O)N1[C@@H](c2ccc3c(c2)OCO3)c2[nH]c3ccccc3c2C[C@H]1C(=O)N1CCN(C)CC1` is recorded as -0.34 (CCNE1 WT-3xFLAG:CDK2 complex; co-IP TMT proteomics, refers to: PCM1; HEK-293T; 20 µM, 6 h; relative to: DMSO).
The hypocotyl length of `Cc1cccc2c1N(C(=O)n1ccnn1)CC2` is reported as 10.8 mm (Arabidopsis thaliana; wild type; 10 µM, seedlings).
With `CN1CCC[C@]1(C)/C=C/S(=O)(=O)NC(=O)Nc1c2c(cc3c1CCC3)CCC2` the IL-1β inhibition was 49.8% (human, whole blood ex vivo; 25 mg single dose, 24 h, single ascending dose, with: LPS and ATP).
For `Cc1ncsc1-c1ccc(C(C)NC(=O)C2CC(O)CN2C(=O)C(NC(=O)CCCCCCCCCCN2CCCC(Nc3ncc(Cl)c(Nc4ccccc4S(=O)(=O)C(C)C)n3)C2)C(C)(C)C)cc1` (stereo not shown), “log2 fold change” read -1.1 (22Rv1; RNA-seq, refers to: POLH mRNA; concentration not given; relative to: DMSO).
For `C=CC(=O)Nc1cccc(Cn2ncc3cnc(Nc4cnn(CCOC)c4)nc32)c1`, “percent of control” read 100% (PRKD1 human; binding, KINOMEscan; 100 nM; lower = stronger binding).
`O=C(N/N=C/c1cc[n+](Cc2ccccc2)c2ccccc12)c1ccc2ccc(C(=O)N/N=C/c3cc[n+](Cc4ccccc4)c4ccccc34)nc2n1` gave a ΔTm of 16.1 ± 0.7 °C (myc22 MYC G4-DNA parallel; FRET melting; 1 µM, K1 buffer, DNA 0.2 µM).
For `C=C(NC(=O)c1csc(-c2nc3c(cc2O)-c2nc(cs2)C(=O)NC(C(C)O)C(=O)NC(=C(C)OC)c2nc(cs2)C(=O)NC2c4nc(cs4)C(=O)NC(COC(=O)c4c5c6c(cccc6n4O)COC(=O)C(OC4CC(C)(O)C(N(C)C)C(C)O4)C2OC5)c2nc-3cs2)n1)C(N)=O` (stereo not shown), “lung bacterial load at ED50” read 5.49 log CFU/g (Streptococcus pneumoniae; ATCC 49619, immunocompromised mice, lung infection; qd dosing).
`CNS(=O)(=O)Nc1nccc(Cc2c(C)c3ccc(Oc4ncccc4F)cc3oc2=O)c1F` gave an IC50 of > 1 µM (HCC1569; cell viability; 7 days).
`O=C(N/N=C/c1cc[n+](Cc2ccccc2)c2ccccc12)c1cncc(C(=O)N/N=C/c2cc[n+](Cc3ccccc3)c3ccccc23)n1` gave a ΔTm of 18 ± 0.5 °C (myc22 MYC G4-DNA parallel; FRET melting; 1 µM, K1 buffer, DNA 0.2 µM).
The DHA level of `COc1cc(O)ccc1CCC(c1ccc(O)cc1)c1cc2c(c(C)c1O)OC(c1ccc(O)cc1)CC2` (mixture of isomers) is reported as 112000 ± 34900 pg/mL (human blood; 10 µM, with: A23187).
With `CC(=O)[O-].O.O.O.O.[Co+2].[O-]c1ccc(Br)cc1C=NCCN1CCOCC1` the inhibition was 44.8% (superoxide scavenging; 160 µM).
`Nc1ncc(-c2cc(-c3cnn(CC(F)(F)F)c3)ncc2F)nc1C(=O)NC1CNCC(F)C1` (stereo not shown) has a remaining binding of 80% (MARK1; KINOMEscan; 1 µM; relative to: DMSO control).
For `COC1CN([C@H]2CC[C@H]([C@@]3(C)Oc4c(Cl)cc(C(=O)NCc5c(SC)cc(C)[nH]c5=O)c(C)c4O3)CC2)C1`, “log2 fold change” read 4.35 (RNA-seq, refers to: PPP1R9A; human, whole blood; dose not given, 24 h; relative to: pretreatment baseline).
`C[n+]1cccc2cc(/C=N/NC(=O)N/N=C/c3ccc4c(ccc[n+]4C)c3)ccc21` has a ΔTm of 3.8 ± 0.4 °C (myc22 MYC G4-DNA parallel; FRET melting; 1 µM, K1 buffer, DNA 0.2 µM, with: ds26 10 µM).
`CCN(CC)CC(=O)Nc1cccc(-n2cc(-c3ccc4ccc(-c5cn(-c6cccc(NC(=O)CN(CC)CC)c6)nn5)cc4c3)nn2)c1` has a fold regulation of 1.02 (RCC4; PCR angiogenesis array, refers to: FGFR3; 5 x IC50, 2 h, normoxia; relative to: untreated).
With `C[n+]1ccc(/C=N/NC(=O)c2cncc(C(=O)N/N=C/c3cc[n+](C)c4ccccc34)n2)c2ccccc21` the ΔTm was 20.1 ± 0.2 °C (myc22 MYC G4-DNA parallel; FRET melting; 1 µM, K1 buffer, DNA 0.2 µM, with: ds26 10 µM).
`CN1CCCNC(=O)c2cccc(c2)C(=O)NCCCN(C)CCCNc2cccc3c2C(=O)c2cccc(c2C3=O)NCCC1`: “log2 fold change” 0.534 (SAS; RNA-Seq, refers to: SRSF11 mRNA; 1 µM, 6 h; relative to: untreated cells).
`O=C(N/N=C/c1cc[n+](CC2CC2)c2ccccc12)c1cccc(C(=O)N/N=C/c2cc[n+](CC3CC3)c3ccccc23)c1` has a ΔTm of 12.7 ± 0.3 °C (myc22 MYC G4-DNA parallel; FRET melting; 1 µM, K1 buffer, DNA 0.2 µM).
With `COc1ccc(C(=O)CCc2cc(C(CCc3ccc(O)cc3OC)c3ccc(O)cc3)c(O)cc2OC)cc1` (racemic) the DHA level was 159000 ± 79600 pg/mL (human blood; 3 µM, with: A23187).
`O=C(N/N=C/c1ccc(C[n+]2ccccc2)cc1)c1cccc(C(=O)N/N=C/c2ccc(C[n+]3ccccc3)cc2)n1` gave a ΔTm of 8.6 ± 0.4 °C (myc22 MYC G4-DNA parallel; FRET melting; 1 µM, K1 buffer, DNA 0.2 µM).
With `CCCCNCCO.O=C(O)C(Cl)Cl` the herbicidal inhibition was 0% (Eclipta prostrata; 15 mg/mL, 21 days, pre-emergence, greenhouse).

Some of these lines once more:
`Nc1ncc(-c2cc(-c3cnn(CC(F)(F)F)c3)ncc2F)nc1C(=O)NC1CNCC(F)C1` (stereo not shown) has a remaining binding of 80% (MARK1; KINOMEscan; 1 µM; relative to: DMSO control).
